Results collected from several papers.
Every numbered part comes from another study and shows a few of its results, in no order.

Study 1 — technique: RNA Bind-n-Seq; molecule type: RNA; sample: in vitro; concentration: 200 nM; setting: whole 134-nt RNA, ends assumed; added: 150 mM LiCl; reference: input library; direction: higher = stronger binding; measurement: log2 enrichment; library: 7-deaza-guanosine replaces G
Target: Ras GTPase-activating protein-binding protein 1, full length (G3BP1, Homo sapiens, UniProt Q13283)
UniProt Q13283, sequence (whole entry, looked up): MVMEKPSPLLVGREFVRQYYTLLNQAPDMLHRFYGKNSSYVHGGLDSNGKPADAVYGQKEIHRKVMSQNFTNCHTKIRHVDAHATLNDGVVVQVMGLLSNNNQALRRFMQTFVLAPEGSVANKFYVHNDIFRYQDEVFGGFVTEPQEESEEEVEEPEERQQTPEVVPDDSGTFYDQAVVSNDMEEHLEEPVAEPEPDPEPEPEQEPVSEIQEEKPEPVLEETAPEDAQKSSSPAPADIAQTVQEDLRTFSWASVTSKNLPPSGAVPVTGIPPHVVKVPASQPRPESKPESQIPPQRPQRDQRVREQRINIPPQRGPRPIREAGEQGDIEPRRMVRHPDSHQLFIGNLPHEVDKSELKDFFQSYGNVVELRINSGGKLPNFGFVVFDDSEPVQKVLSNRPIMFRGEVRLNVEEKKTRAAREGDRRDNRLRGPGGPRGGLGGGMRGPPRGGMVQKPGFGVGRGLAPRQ
Shared flanks, not repeated: GGGAGUUCUACAGUCCGACGAUC … UGGAAUUCUCGGGUGUCAAGG
Strand = ACCAUGCAGGUGGGCAUCUUUGGGAAGUGGCGCAAGGGGGGGAUAGGGAGGGGGGUAACACUUUGGGAACAGGUGGUCCCAGGUCGUUUC; result = 0.416
Strand = UGGGAGGUGGAUUUUGUUUAUUUUUUUAGCUCAUUUCCAGGGGUGGGAAUUUUUUUUUAAUAUGUGUCAUAAAUAAAGUUGUUUUUGAAA; result = -0.0155
Strand = UCAAGUCCUGUGCUACACAUCGUAUGUACCGAAUCGGAAAAAGGUUUGGUUUGGAAAGUAUUAUGUUACGCCGUUCGGAUCUGCACUUCC; result = -1.06
Strand = UCAAGUCCUGUGCUACACAUCGUAUGUACCGAAUCGGGGUUUGGUUUGGUUUGGGAAAGUAUUAUGUUACGCCGUUCGGAUCUGCACUUC; result = -0.828
Strand = CAAGUCCUGUGCUACACAUCGUAUGUACCGAAUCGGGGAAAGGGGAAAGGAAAGGAAAGUAUUAUGUUACGCCGUUCGGAUCUGCACUUC; result = 0.0736
Strand = AAGUCCUGUGCUACACAUCGUAUGUACCGAAUCGGAAAAAGGAAAAAGGGAAAAAGGAAAGUAUUAUGUUACGCCGUUCGGAUCUGCACU; result = -0.471
Strand = CCUGUGCUACACAUCGUAUGUACCGAAUCGGGCCCCCCGGGGCCCCCCGGGCCCCCCGGGGAAAGUAUUAUGUUACGCCGUUCGGAUCUG; result = -2.19
Strand = UCCUGUGCUACACAUCGUAUGUACCGAAUCGGGGAAAGGGGAAAGGGGUUUUUUUGGGGAAAGUAUUAUGUUACGCCGUUCGGAUCUGCA; result = 1.13
Strand = ACCAUGCAGGUGGGCAUCUUUGGGAAGUGGGGCAAGGGGGGGAUAGGGAGGGGGGUAACACUUUGGGAACAGGAAAUCCCAGGUCGUUUC; result = 0.203
Strand = AGUCCUGUGCUACACAUCGUAUGUACCGAAUCAAAUUUUUAAAUUUUUAAACCCAAAAAAGUAUUAUGUUACGCCGUUCGGAUCUGCACU; result = 0.211
Strand = UGCGAUAUGAACGUUCACAAGCAAUGCGUCAUCAAUGUCCCCAGCCUCUGCGGAAUGGAUCACACUGAGAAGAGGGGGCGGAUUUACCUA; result = -0.53

Study 2 — technique: RNA Bind-n-Seq; molecule type: RNA; sample: in vitro; concentration: 365 nM; reference: no-protein control; direction: higher = stronger binding; measurement: RBNS enrichment (R)
Target: RNA binding protein fox-1 homolog 2, RRM domain, GST-SBP tag (RBFOX2, Homo sapiens, UniProt O43251-10, residues 100-194)
Setting: natural RNA segment, single round, ends assumed
Shared flanks, not repeated: GGGAGUUCUACAGUCCGACGAUC … UGGAAUUCUCGGGUGCCAA
Residues (chain): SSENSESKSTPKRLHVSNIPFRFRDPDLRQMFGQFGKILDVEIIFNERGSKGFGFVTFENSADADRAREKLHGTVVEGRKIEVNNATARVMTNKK
Strand = AGGGUGCCUGACCUGUGUGCCGGCUGCUCACUGCUGUGACCAGCAGCCGAGCCCUUGGCCCUAGCCCUUGCUGCGCAGAACAGCUUGCUGGCAGCUGGCAUCGUGUCGCU; result = 0.408
Strand = CCUCUGCCUGGCCUGUUCCUGUCCCUGUCUUCCUACCUCUAUAGCAAGCCCAAAGUGUCUUUUCAGGAGGGCCAGUAGCCCCCAGGCUGCUGCCCACAUUAGCACAGUUU; result = 0.303
Strand = CUGUGUAUAUAUAUUAAAAAAAAAACAAAGUUUUGUAUGUUUUUAUUACUUUAACUAUUGUUAUAAAAAGCCUGCCAUUUUUAAUAUGUGGUUUGGGGGAUUUUUGUUUG; result = 6.06
Strand = UGCUUACAGAAAAUAUAGCCAUGAUUGAAAUCAAAUAGUAAAGGCUGUUCUGGCUUUUUAUCUUCUUAGCUCAUCUUAAAUAAGCAGUACACUUGGAUGCAGUGCGUCUG; result = 0.523
Strand = UCGUACUGAGCAUCCUCAUUUCAACGCAGUAUACGCUCUAGUUAUCAUGUGUAACGUGGGUCUGUUUAGCUGAGAUAGACUAGAGGAGGACACUAGAGAUGCCCAUUCCU; result = 0.24
Strand = AGCUGAGAGCCAGAAAUGCAGAUUCAAUUUGGAAGGAGAUGGGAUAGCUGAAGAACUUACCACGUCCAUGACUGUGCCCUGACUCAAGACCGUAUCAUGUGGUGGCUUUA; result = 0.499
Strand = CUAUACUGCACUUACGCUAUCCAGUUGCAGGUAAUUUUUUGUCUGCUAGUAGUGUUCUAGAUUAUGUCUUUCCAAAGCGCUGAGGCUGUGCACCUAUUCUGUAGUUGCAG; result = 0.921
Strand = UGAAAUUUUUCCACACUAUGUGUGUUGUUUCCAUAGCUGUUCACUUCCUCCAGAAGCCUCCUUACAUUAAAAAGCCUUACAGUUAUCCUGCAAGGGACAGGAAGGUCUGA; result = 0.218
Strand = AUGAUAGAAGAUAGAAAGACUAUUGCCUAGAAAUAUGAGACUGAGUUUUGAAACAGAAACCAGUACUCAAUAAUGUAGUGUCAGUGUCCGUUUGGUACGUAUCAGUGAAU; result = 0.455
Strand = UAAAUUGUAUACAUUUUGUUAUAGAAUACUUUUUCCAGUUGAGUAAAUUAUGAAAGGAAGUUAACAUGAAAAGUGUAAGCAGUGGCUUUUUUAAAAUUGAGGAUUAACCC; result = 0.542
Strand = GGAGUCAAGUAAUGGAGGUCCCAGCCCUGGGGGUUUAAGCUCUGCCCCUUCCCCAUGAACCCUGCCCUGCUCUGCCCAGGCAAGGAACAGAAGUGAGGAUGAGACCCAGC; result = 0.277
Strand = GGUAAGGCAGAGCCCUCUGCUGAGAAUGUAGUAUUGUUUUUCCCCUCUCCCUCCUGCUUUCUUUUUGGAGCUUCUUUGGGUCAAAGACAUGGAAGUUGCUUCAGAUAUCU; result = 0.468

Study 3 — technique: universal PBM; molecule type: double-stranded DNA, one strand shown; sample: in vitro; concentration: 600 nM; direction: higher = stronger binding; measurement: E-score
Target: Sal-like protein 4, full length isoform A (SALL4, Homo sapiens, UniProt Q9UJQ4, residues 1-1053)
UniProt Q9UJQ4, sequence (whole entry, looked up): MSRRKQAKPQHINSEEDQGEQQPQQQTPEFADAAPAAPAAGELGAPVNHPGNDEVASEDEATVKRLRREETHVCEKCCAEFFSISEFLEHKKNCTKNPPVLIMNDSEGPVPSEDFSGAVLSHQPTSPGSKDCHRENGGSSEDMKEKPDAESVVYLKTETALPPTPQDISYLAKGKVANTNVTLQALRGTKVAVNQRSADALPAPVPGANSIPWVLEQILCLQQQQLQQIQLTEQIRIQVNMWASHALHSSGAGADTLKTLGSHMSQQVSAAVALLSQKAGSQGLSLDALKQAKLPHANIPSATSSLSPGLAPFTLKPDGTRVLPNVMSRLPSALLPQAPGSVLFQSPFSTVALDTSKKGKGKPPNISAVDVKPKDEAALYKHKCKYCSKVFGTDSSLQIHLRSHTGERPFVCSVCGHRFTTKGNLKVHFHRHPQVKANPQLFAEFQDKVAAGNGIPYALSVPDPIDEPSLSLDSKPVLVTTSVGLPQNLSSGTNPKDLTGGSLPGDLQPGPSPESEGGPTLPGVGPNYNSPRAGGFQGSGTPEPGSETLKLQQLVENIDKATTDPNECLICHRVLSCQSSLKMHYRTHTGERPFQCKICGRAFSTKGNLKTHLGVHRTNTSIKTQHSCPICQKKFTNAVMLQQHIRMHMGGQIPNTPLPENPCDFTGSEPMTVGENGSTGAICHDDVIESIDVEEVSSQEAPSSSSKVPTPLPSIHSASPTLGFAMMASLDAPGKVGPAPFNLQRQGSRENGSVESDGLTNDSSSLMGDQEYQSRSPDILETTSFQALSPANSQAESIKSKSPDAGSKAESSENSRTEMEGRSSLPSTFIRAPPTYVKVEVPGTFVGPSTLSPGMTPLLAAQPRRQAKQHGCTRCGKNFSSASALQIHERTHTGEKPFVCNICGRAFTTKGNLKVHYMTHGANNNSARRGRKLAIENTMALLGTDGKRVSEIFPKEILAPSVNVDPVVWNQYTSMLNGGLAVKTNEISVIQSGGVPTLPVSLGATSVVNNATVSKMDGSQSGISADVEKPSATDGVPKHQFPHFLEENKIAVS
Setting: 8-mer, flanks averaged, mean of replicates
Strand = AAAGGTTC; result = 0.0428
Strand = ATTACAGC; result = 0.123
Strand = AATGGTAC; result = 0.195
Strand = ATATACTG; result = 0.277
Strand = GGAAGCTA; result = -0.165
Strand = ATTTTAAA; result = 0.352
Strand = CCCTGCCG; result = -0.33
Strand = ATGGCTTG; result = -0.0536
Strand = CCTCTGAA; result = -0.0803
Strand = CGACTGCA; result = -0.0999
Strand = CCTTGAAC; result = -0.102
Strand = GTGGATCA; result = -0.0549
Strand = CCTCCCAC; result = -0.18
Strand = CCTCCAGG; result = -0.269
Strand = AGGGCCCG; result = -0.382
Strand = ACACGATC; result = -0.0259
Strand = TTCACCAA; result = 0.0561
Strand = ATGAGGTA; result = 0.173
Strand = AGCACGCC; result = -0.271
Strand = GTACGCCA; result = -0.197
Strand = ATTTTACG; result = 0.278
Strand = AGACGATG; result = -0.0067
Strand = GAAAATGA; result = 0.219

Study 4 — technique: protein binding microarray; molecule type: double-stranded DNA, one strand shown; sample: in vitro; concentration: not given; reference: not given; direction: higher = stronger binding; measurement: E-score
Target: Histone acetyltransferase KAT6A, winged helix 2, GST fusion (KAT6A, Homo sapiens, UniProt Q92794, residues 85-181)
Setting: 8-mer, flanks averaged, mean of 2 arrays, mostly near background
Residues (chain): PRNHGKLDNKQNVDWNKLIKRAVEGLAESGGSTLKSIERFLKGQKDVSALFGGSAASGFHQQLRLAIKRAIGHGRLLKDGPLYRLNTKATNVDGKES
Strand = CACCCCTC; result = -0.0229
Strand = CAACAACC; result = 0.0348
Strand = ACAGGGGG; result = -0.0222
Strand = ATGTATCG; result = -0.026
Strand = TACAAGAA; result = 0.0185
Strand = CTGGGAGA; result = -0.0418
Strand = CCAACTTC; result = -0.194
Strand = ATAAATAC; result = -0.0131
Strand = GGCGAATA; result = 0.125
Strand = AAGGACCT; result = 0.0962
Strand = GGAGGCAA; result = 0.00594
Strand = ATCGAAGC; result = 0.0852
Strand = GCGATCAC; result = 0.0544
Strand = CATATCCG; result = -0.0226
Strand = CACGGACA; result = -0.0141
Strand = GCTATCAA; result = 0.185
Strand = CTCGCCAA; result = 0.071
Strand = CGGGGTCC; result = 0.0519
Strand = AAGCCAGG; result = 0.0477
Strand = ACAGGAAA; result = 0.0764
Strand = CAACAACG; result = -0.0462
Strand = TACATTAA; result = 0.111
Strand = AAGATCAT; result = -0.00225
Strand = CAGGAACC; result = -0.0506
Strand = ACTGCTCA; result = 0.165

For quick reference, copied from above (study 1):
Strand = UGGGAGGUGGAUUUUGUUUAUUUUUUUAGCUCAUUUCCAGGGGUGGGAAUUUUUUUUUAAUAUGUGUCAUAAAUAAAGUUGUUUUUGAAA; result = -0.0155
Strand = UGCGAUAUGAACGUUCACAAGCAAUGCGUCAUCAAUGUCCCCAGCCUCUGCGGAAUGGAUCACACUGAGAAGAGGGGGCGGAUUUACCUA; result = -0.53
Strand = CCUGUGCUACACAUCGUAUGUACCGAAUCGGGCCCCCCGGGGCCCCCCGGGCCCCCCGGGGAAAGUAUUAUGUUACGCCGUUCGGAUCUG; result = -2.19
Strand = AGUCCUGUGCUACACAUCGUAUGUACCGAAUCAAAUUUUUAAAUUUUUAAACCCAAAAAAGUAUUAUGUUACGCCGUUCGGAUCUGCACU; result = 0.211
Strand = UCAAGUCCUGUGCUACACAUCGUAUGUACCGAAUCGGAAAAAGGUUUGGUUUGGAAAGUAUUAUGUUACGCCGUUCGGAUCUGCACUUCC; result = -1.06
Strand = AAGUCCUGUGCUACACAUCGUAUGUACCGAAUCGGAAAAAGGAAAAAGGGAAAAAGGAAAGUAUUAUGUUACGCCGUUCGGAUCUGCACU; result = -0.471
Strand = ACCAUGCAGGUGGGCAUCUUUGGGAAGUGGGGCAAGGGGGGGAUAGGGAGGGGGGUAACACUUUGGGAACAGGAAAUCCCAGGUCGUUUC; result = 0.203
Strand = CAAGUCCUGUGCUACACAUCGUAUGUACCGAAUCGGGGAAAGGGGAAAGGAAAGGAAAGUAUUAUGUUACGCCGUUCGGAUCUGCACUUC; result = 0.0736
Strand = UCCUGUGCUACACAUCGUAUGUACCGAAUCGGGGAAAGGGGAAAGGGGUUUUUUUGGGGAAAGUAUUAUGUUACGCCGUUCGGAUCUGCA; result = 1.13
Strand = ACCAUGCAGGUGGGCAUCUUUGGGAAGUGGCGCAAGGGGGGGAUAGGGAGGGGGGUAACACUUUGGGAACAGGUGGUCCCAGGUCGUUUC; result = 0.416
